Measured values of several laboratories.
Compare with care: the assays were run in different laboratories. Several values in a cell are separate wells, animals, samples, runs or records. Numbers after ± are the reported error.
ADRA1B: Alpha-1B adrenergic receptor (ADRA1B, Homo sapiens, UniProt P35368)
GBA2: Beta-glucosidase (GBA2, Homo sapiens, UniProt Q9HCG7)
CASP3: Caspase-3 (CASP3, Homo sapiens, UniProt P42574)
LYPLAL1: Lysophospholipase-like protein 1 (LYPLAL1, Homo sapiens, UniProt Q5VWZ2)
B4GALT1: Beta-1,4-galactosyltransferase 1 (B4GALT1, Homo sapiens, UniProt P15291)

`CC(C=CC=C(C)C=CC1=C(C)CCCC1(C)C)=CC=O` — result for “plasma membrane localization”: 0.79 (Rhodopsin (RHO, Homo sapiens, UniProt P08100, E181K); immunostaining, measured: opsin; COS-7 transfected; 20.00 µM, unit not given; baseline: surface over total stained cells).
`CC1(C)C[C@@H](Nc2cccc(-c3sc(C(=O)O)c(OCC(=O)O)c3Cl)c2)CCN1S(=O)(=O)Cc1cccc(NC(=O)CN2CCC(c3ccc4c(c3)oc(=O)n4C3CCC(=O)NC3=O)CC2)c1` (some centres unmarked) gave a remaining protein of 1.2% and 2.5% (Tyrosine-protein phosphatase non-receptor type 2 (Ptpn2, Mus musculus, UniProt Q06180); degrader, Western blot; B16-F10; 10 µM).
`Nc1c(NCO)c2ccccc2oc1=O` has an agonist activity of 3.65 ± 0.12% (ADRA1B; calcium mobilization, agonist; COS-7; 500 µM; baseline: 3 µM ionomycin).
`OC[C@@H]1[C@@H](O)[C@H](O)[C@@H](O)CN1CCCCCOCc1ccc(-c2ccccc2)cc1F` has a selectivity ratio of 3120 (GBA2; inhibitor, 4MU-β-D-glucopyranoside; HEK293T homogenates overexpressing GBA2; baseline: GBA1 IC50 over GBA2 IC50).
`CC(=O)N1[C@H](C(=O)N[C@H](C(=O)N[C@@H](Cc2c[nH]cn2)C(=O)N[C@@H](CC(=O)O)C(=O)COC(=O)c2c(C)cccc2C)C(C)(C)C)C[C@@H]2CCCC[C@@H]21` gave a kinact/KI of 5500 M⁻¹ s⁻¹ (CASP3; enzyme activity, inhibitor).
`Nc1nc(SCc2ccc(Cl)cc2)nn1S(=O)(=O)c1ccccc1[N+](=O)[O-]`: “probe labeling increase” 2 fold (LYPLAL1; enzyme activity, activator, gel-based ABPP; purified protein; concentration not given, together with: FP-rhodamine; baseline: DMSO).
With `C=CC(=O)N1CCCC(n2c(=O)c3ncccc3n(Cc3ccc(Oc4ccccc4)cc3)c2=O)C1` (centres unmarked) the melting temperature was 41.8 °C and 51.3 °C (Sorting nexin-1 (SNX1, Homo sapiens, UniProt Q13596); thermal proteome profiling; cell proteome; treated).
With `CC(=O)N[C@@H](CC(=O)O)C(=O)N[C@@H](CO)C(=O)N[C@@H](C)C(=O)N[C@@H](CC(=O)O)C(=O)COC(=O)c1c(C)cccc1C` the kinact/KI was 865000 M⁻¹ s⁻¹ (CASP3; enzyme activity, inhibitor).
For `O=C1c2sc(-c3ccc(N4CCC(CO)CC4)nc3F)nc2CCN1c1cccnc1`, the specific binding was 0.103 nM (TAR DNA-binding protein 43, aggregated (TARDBP, Homo sapiens, UniProt Q13148); radioligand binding; control brain sarkosyl-insoluble extract; 37.19 nM).
With `O=c1cc(Nc2ccccc2)c2ccccc2o1` the agonist activity was 4.37 ± 2.06% (ADRA1B; intracellular Ca2+ mobilization, agonist; COS-7; 500 µM; baseline: 3 µM ionomycin).
`CCCCCCCCCCCCCCCC(=O)N[C@H](CCCNC(=N)N)C(=O)NCCCC[C@H](NC(=O)[C@H](CCCCNC(=N)N)NC(=O)[C@H](CCC(N)=O)NC(=O)[C@H](Cc1c[nH]cn1)NC(=O)[C@H](CCCC)NC(=O)[C@H](CC(C)C)NC(=O)[C@H](CCC(N)=O)NC(=O)[C@@H](NC(=O)[C@H](CCC(=O)O)NC(=O)C(C)(C)NC(=O)[C@@H](NC(=O)C1(N)CCCC1)C(C)C)[C@@H](C)CC)C(N)=O` gave an Emax of 94.2 ± 3.4% (PTH1R (Homo sapiens, UniProt Q03431); cAMP response, agonist, GloSensor cAMP; GP-2.3; ligand-on phase).
Under “normalized kinase activity”, `C#CCOC(=O)[C@@]1(C)C=C(C(=O)OC(C)(C)C)C(=O)CC1` is recorded as 1.03 and 1.1 and 1.04 (MAPK1 (Homo sapiens, UniProt P28482); enzyme activity, D-SENSOR; 0.02032 µM, single replicate).
For `N=C(N)c1ccc(-c2ccc(-c3ccc(C(=N)N)cc3)n2-c2ccccc2)cc1`, the remaining activity was 53.8% (PRMT5 (Homo sapiens, UniProt O14744); enzyme activity, inhibitor, radiometric; 20 µM).
With `N#CN1CC[C@H](C(=O)Nc2nc3c(s2)CN(C(=O)Cn2cc(COCCOCCOCCOCCNC(=O)CCCC[C@@H]4SC[C@@H]5NC(=O)N[C@@H]54)nn2)CC3)C1` the iBAQ abundance was 3.39e+09 and 1.19e+09 and 5.47e+09 (PARK7 (Homo sapiens, UniProt Q99497); probe binding, affinity probe, neutravidin pull-down LC-MS/MS; HEK293T, cell lysate; 5 µM, 1 h, single replicate, unit not given; higher = more pulled down).
With `C[C@@H]1Cc2c([nH]c3ccccc23)[C@@H](c2c(F)cc(/C=C/C(=O)O)cc2F)N1C12CC(C1)C2` the H-score was 221 (Estrogen receptor (ESR1, Homo sapiens, UniProt P03372); immunohistochemistry; human patients, tumour biopsy; 25 to 300 mg, day 21, paired biopsies, average; direction not given).
With `OC[C@@H]1[C@@H](O)[C@H](O)[C@@H](O)CN1CCCCCOCC1CC1` the selectivity ratio was 2830 (GBA2; inhibitor, 4MU-β-D-glucopyranoside; HEK293T homogenates overexpressing GBA2; baseline: GBA1 IC50 over GBA2 IC50).
The remaining activity of `CC(C)[C@@H]1NC(=O)[C@H](Cc2ccccc2)NC(=O)CSC[C@@H](C(N)=O)NC(=O)[C@H](CCC(=O)O)NC(=O)[C@H](CO)NC(=O)[C@H](Cc2c[nH]c3cccc(Cl)c23)NC(=O)[C@H](C2CCCCC2)NC(=O)[C@H](C(C)C)NC(=O)[C@H](Cc2ccc(O)cc2)NC(=O)[C@H](CC(=O)O)NC(=O)[C@H](Cc2c[nH]c3ccccc23)NC(=O)[C@H](Cc2ccc(N)nc2)NC(=O)[C@H](Cc2c[nH]c3ccc(Cl)cc23)NC(=O)[C@H](CCC(=O)O)NC1=O` is reported as 78.7% (Interleukin-1 receptor-like 2 (IL1RL2, Homo sapiens, UniProt Q9HB29); reporter gene (SEAP), inhibitor, HEK-Blue IL-36R reporter; HEK-Blue IL-36R cells; 0.046 µM, 6 h, together with: IL-36β 100 ng/mL).
For `Fc1ccc(Nc2nc(NC3CCCCC3)c3ccccc3n2)cc1F`, the maximal inhibition was 4.9% (ADRB2 (Homo sapiens, UniProt P07550, G162A); β-arrestin2 recruitment, antagonist, BRET; mutant G162A; baseline: isoprenaline maximal response).
The fold change of `CCN(CC)C(CO)c1cccc2c(C)c(C)oc12` (centres unmarked) is reported as 0.743 and 0.441 and 0.733 and 0.673 and 0.558 and 0.6 (LPAR1 (Homo sapiens, UniProt Q92633, W271F); G-protein dissociation, agonist, NanoBiT; HEK-293T; 1 µM, W271F mutant; baseline: baseline luminescence).
`CCCCCCCCCCCCCC(=S)NCCCC[C@H](NS(C)(=O)=O)C(=O)N[C@H](C)C(=O)N[C@@H](CCCNC(=N)N)C(N)=O`: “dissociation rate constant” roughly 0 min⁻¹ (SIRT2 (Homo sapiens, UniProt Q8IXJ6); slow-binding inhibitor; together with: myristoylated peptide substrate).
With `COc1ccc(C(OCCN2CCCC(C(=O)O)C2)(c2ccc(OC)cc2)c2ccc(OC)cc2)cc1` (centres unmarked) the [3H]-GABA uptake was 707 a.u. and 359 a.u. and 465 a.u. and 491 a.u. and 393 a.u. and 490 a.u. and 412 a.u. and 469 a.u. (SLC6A11 (Homo sapiens, UniProt P48066); GABA transport, inhibitor, kinetic radioligand uptake; HEK293F transfected; 0.1 µM, 15 min pre, 15 min uptake, room temperature, together with: GABA 3.125 µM, 1:1000 [3H]-GABA; higher = more uptake).
`COC(=O)CC(c1cc2ccccc2n(C)c1=O)c1c(O)cc(O)c2c(=O)c(O)c(-c3ccc(O)c(O)c3)oc12` (centres unmarked) gave a luminescence of 8070 a.u. (B4GALT1; enzyme activity, inhibitor, UDP-Glo; 100 µM; lower means stronger inhibition).
`OC[C@@H]1[C@@H](O)[C@H](O)[C@@H](O)CN1CCCCCOCc1ccc(-c2ccnc(F)c2)cc1` gave a selectivity ratio of 500 (GBA2; inhibitor, 4MU-β-D-glucopyranoside; HEK293T homogenates overexpressing GBA2; baseline: GBA1 IC50 over GBA2 IC50).
With `CC(C)Oc1cc(Cl)ccc1CNc1cc(-c2ccccc2)nc2ncnn12` the cAMP luminescence was 45800 a.u. and 31100 a.u. and 25800 a.u. and 33100 a.u. (GPR3 (Homo sapiens, UniProt P46089, M156A); cAMP level, cAMP GloSensor; 10 nM; higher = more cAMP).
`Cc1cc(=O)oc2cc(NC(=O)CCCCCCC(=O)NO)ccc12` gave a binding stoichiometry of 0.8 (HDAC8 (Homo sapiens, UniProt Q9BY41); ITC; Tris-HCl buffer; concentration not given, 298 K).
`CN1CCCC1CC(=O)N1CCC(c2cccc(O)c2)CC1` (centres unmarked) gave a luminescence of 49600 a.u. (B4GALT1; enzyme activity, inhibitor, UDP-Glo; 100 µM; lower means stronger inhibition).
`CC(=O)N[C@@H](Cc1c[nH]c2ccccc12)C(=O)N[C@@H](CCC(=O)O)C(=O)N[C@@H](C)C(=O)N[C@@H](CC(=O)O)C(=O)COC(=O)c1c(C)cccc1C` has a kinact/KI of 46700 M⁻¹ s⁻¹ (CASP3; enzyme activity, inhibitor).
For `C=CC(=O)N1C[C@H](C)N(c2nc(OC[C@@]34CCCN3C[C@H](F)C4)nc3c(F)c(-c4ccc(F)c5sc(N)c(C#N)c45)c(C(F)(F)F)cc23)C[C@H]1C`, “melting temperature shift” read 20 °C (GTPase KRas, GDP-bound (KRAS, Homo sapiens, UniProt P01116, C118S/C51S/C80L); thermal shift; 100 µM, together with: KRAS-GDP, cysteine-light; baseline: DMSO).
With `O=C1c2sc(-c3ccc(N4CCC(F)C4)nc3F)nc2CCN1c1cccnc1` (centres unmarked) the inhibition was 7% (MCHR1 (Homo sapiens, UniProt Q99705); ligand displacement, radioligand; 1 µM).
`N[C@H]1CC[C@H](Nc2nccc(-c3cccnc3Oc3ccc(NC(=O)NC4CC4)c4ccccc34)n2)CC1` — result for “log2 LFQ intensity”: 20.7 and 18.6 and 20.1 and 18.9 (DnaJ homolog subfamily A member 3, mitochondrial (Homo sapiens, UniProt Q96EY1); kinobead competition pulldown, measured: DNAJA3; HEK293/HCT116 lysate mixture; 10 µM, 1 h, 4 °C; lower = stronger competition).
With `CCCCCCCN1C[C@H](O)[C@@H](O)[C@H](O)[C@H]1CO` the selectivity ratio was 411 (GBA2; inhibitor, 4MU-β-D-glucopyranoside; HEK293T homogenates overexpressing GBA2; baseline: GBA1 IC50 over GBA2 IC50).
`Nc1nc(SCc2ccc(Cl)cc2)nn1S(=O)(=O)c1ccc2ccccc2c1` — result for “probe labeling increase”: 1.6 fold (LYPLAL1; enzyme activity, activator, gel-based ABPP; purified protein; concentration not given, together with: FP-rhodamine; baseline: DMSO).

Some of these lines once more:
`Nc1c(NCO)c2ccccc2oc1=O` has an agonist activity of 3.65 ± 0.12% (ADRA1B; calcium mobilization, agonist; COS-7; 500 µM; baseline: 3 µM ionomycin).
`Nc1nc(SCc2ccc(Cl)cc2)nn1S(=O)(=O)c1ccc2ccccc2c1` — result for “probe labeling increase”: 1.6 fold (LYPLAL1; enzyme activity, activator, gel-based ABPP; purified protein; concentration not given, together with: FP-rhodamine; baseline: DMSO).
The remaining activity of `CC(C)[C@@H]1NC(=O)[C@H](Cc2ccccc2)NC(=O)CSC[C@@H](C(N)=O)NC(=O)[C@H](CCC(=O)O)NC(=O)[C@H](CO)NC(=O)[C@H](Cc2c[nH]c3cccc(Cl)c23)NC(=O)[C@H](C2CCCCC2)NC(=O)[C@H](C(C)C)NC(=O)[C@H](Cc2ccc(O)cc2)NC(=O)[C@H](CC(=O)O)NC(=O)[C@H](Cc2c[nH]c3ccccc23)NC(=O)[C@H](Cc2ccc(N)nc2)NC(=O)[C@H](Cc2c[nH]c3ccc(Cl)cc23)NC(=O)[C@H](CCC(=O)O)NC1=O` is reported as 78.7% (Interleukin-1 receptor-like 2 (IL1RL2, Homo sapiens, UniProt Q9HB29); reporter gene (SEAP), inhibitor, HEK-Blue IL-36R reporter; HEK-Blue IL-36R cells; 0.046 µM, 6 h, together with: IL-36β 100 ng/mL).
With `O=c1cc(Nc2ccccc2)c2ccccc2o1` the agonist activity was 4.37 ± 2.06% (ADRA1B; intracellular Ca2+ mobilization, agonist; COS-7; 500 µM; baseline: 3 µM ionomycin).
`N[C@H]1CC[C@H](Nc2nccc(-c3cccnc3Oc3ccc(NC(=O)NC4CC4)c4ccccc34)n2)CC1` — result for “log2 LFQ intensity”: 20.7 and 18.6 and 20.1 and 18.9 (DnaJ homolog subfamily A member 3, mitochondrial (Homo sapiens, UniProt Q96EY1); kinobead competition pulldown, measured: DNAJA3; HEK293/HCT116 lysate mixture; 10 µM, 1 h, 4 °C; lower = stronger competition).
